Measured values of several laboratories.
Compare with care: the assays were run in different laboratories. “And” joins repeats or separate records; there may be more than shown. ± marks the error that the study gave.
T1: riboswitch RNA yjdF aptamer (Bacillus subtilis); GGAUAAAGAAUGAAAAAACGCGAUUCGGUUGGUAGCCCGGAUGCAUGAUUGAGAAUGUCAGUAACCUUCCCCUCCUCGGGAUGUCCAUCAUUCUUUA
UniProt P51575, sequence (whole entry, unmodified, looked up): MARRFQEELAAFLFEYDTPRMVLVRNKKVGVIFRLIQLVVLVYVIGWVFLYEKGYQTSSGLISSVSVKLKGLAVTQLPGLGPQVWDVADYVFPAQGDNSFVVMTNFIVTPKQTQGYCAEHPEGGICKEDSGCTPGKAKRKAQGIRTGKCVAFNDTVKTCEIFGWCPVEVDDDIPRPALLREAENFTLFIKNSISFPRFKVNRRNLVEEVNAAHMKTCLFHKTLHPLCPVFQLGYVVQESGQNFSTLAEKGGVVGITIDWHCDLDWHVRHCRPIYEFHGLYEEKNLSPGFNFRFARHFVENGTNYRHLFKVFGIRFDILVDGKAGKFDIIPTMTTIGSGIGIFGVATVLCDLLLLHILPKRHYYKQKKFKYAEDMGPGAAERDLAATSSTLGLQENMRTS
UniProt Q13224, sequence (whole entry, unmodified, looked up): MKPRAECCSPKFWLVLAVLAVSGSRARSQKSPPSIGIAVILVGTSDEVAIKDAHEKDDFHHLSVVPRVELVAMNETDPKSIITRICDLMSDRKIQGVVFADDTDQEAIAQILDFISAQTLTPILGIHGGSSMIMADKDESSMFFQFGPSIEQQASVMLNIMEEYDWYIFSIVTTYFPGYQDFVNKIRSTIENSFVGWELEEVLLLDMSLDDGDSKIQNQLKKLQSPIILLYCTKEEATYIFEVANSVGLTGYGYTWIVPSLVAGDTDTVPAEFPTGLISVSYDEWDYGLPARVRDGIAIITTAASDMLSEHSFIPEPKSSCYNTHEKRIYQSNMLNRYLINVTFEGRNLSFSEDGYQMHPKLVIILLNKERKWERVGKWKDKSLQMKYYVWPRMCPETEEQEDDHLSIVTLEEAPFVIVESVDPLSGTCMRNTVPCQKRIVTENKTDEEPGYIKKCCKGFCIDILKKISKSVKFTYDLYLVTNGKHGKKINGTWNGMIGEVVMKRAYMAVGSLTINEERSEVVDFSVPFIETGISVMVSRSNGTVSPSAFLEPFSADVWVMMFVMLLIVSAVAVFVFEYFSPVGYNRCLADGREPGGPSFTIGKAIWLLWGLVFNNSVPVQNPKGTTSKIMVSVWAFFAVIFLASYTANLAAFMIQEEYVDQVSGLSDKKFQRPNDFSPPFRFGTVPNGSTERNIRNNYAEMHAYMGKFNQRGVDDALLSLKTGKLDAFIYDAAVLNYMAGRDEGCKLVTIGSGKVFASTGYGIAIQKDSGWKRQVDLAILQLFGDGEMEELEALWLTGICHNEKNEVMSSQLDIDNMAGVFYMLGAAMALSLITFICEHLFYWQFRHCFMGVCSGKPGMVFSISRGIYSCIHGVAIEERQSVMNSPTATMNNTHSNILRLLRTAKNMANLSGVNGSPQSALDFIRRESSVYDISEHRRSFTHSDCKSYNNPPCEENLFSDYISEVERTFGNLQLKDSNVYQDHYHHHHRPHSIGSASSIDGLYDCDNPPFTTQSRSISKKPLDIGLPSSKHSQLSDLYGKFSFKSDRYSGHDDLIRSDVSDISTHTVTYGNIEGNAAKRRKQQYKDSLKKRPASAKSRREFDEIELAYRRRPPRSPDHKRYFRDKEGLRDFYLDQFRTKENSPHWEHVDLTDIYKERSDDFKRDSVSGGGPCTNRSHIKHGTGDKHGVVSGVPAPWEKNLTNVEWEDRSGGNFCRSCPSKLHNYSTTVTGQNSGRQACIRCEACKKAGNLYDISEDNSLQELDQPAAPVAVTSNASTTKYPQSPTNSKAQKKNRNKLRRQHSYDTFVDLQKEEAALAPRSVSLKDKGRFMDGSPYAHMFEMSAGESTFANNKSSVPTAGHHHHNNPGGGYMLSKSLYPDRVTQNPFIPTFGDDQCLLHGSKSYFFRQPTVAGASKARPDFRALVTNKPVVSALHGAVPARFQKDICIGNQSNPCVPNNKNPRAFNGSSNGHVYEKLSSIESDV
UniProt P25963, sequence (whole entry, unmodified, looked up): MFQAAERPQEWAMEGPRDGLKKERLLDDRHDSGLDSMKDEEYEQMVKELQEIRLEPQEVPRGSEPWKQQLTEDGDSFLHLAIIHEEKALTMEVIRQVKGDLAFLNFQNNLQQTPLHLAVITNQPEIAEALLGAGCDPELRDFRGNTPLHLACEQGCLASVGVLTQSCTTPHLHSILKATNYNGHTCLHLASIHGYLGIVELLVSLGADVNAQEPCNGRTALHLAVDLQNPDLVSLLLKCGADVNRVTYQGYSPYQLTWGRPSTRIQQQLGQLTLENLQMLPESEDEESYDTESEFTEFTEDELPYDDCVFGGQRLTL
UniProt Q15349, sequence (whole entry, unmodified, looked up): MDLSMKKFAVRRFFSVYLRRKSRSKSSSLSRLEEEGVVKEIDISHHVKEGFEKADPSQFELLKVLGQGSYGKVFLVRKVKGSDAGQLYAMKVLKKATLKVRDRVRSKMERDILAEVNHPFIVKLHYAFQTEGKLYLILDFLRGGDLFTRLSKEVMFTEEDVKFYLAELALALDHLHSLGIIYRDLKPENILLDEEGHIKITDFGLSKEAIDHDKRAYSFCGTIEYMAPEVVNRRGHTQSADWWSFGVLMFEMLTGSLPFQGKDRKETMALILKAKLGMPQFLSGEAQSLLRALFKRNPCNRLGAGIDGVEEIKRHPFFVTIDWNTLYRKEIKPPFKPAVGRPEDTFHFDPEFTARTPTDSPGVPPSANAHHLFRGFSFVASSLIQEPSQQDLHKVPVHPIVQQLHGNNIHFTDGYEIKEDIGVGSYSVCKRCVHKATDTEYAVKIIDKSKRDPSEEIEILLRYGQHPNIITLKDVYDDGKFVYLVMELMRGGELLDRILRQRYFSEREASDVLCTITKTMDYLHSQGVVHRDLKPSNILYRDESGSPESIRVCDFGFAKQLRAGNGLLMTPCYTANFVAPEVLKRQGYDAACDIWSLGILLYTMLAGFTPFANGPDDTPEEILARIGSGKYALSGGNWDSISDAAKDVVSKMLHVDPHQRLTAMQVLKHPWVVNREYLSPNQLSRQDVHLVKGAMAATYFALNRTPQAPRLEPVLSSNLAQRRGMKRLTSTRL
UniProt P05164, sequence (whole entry, looked up): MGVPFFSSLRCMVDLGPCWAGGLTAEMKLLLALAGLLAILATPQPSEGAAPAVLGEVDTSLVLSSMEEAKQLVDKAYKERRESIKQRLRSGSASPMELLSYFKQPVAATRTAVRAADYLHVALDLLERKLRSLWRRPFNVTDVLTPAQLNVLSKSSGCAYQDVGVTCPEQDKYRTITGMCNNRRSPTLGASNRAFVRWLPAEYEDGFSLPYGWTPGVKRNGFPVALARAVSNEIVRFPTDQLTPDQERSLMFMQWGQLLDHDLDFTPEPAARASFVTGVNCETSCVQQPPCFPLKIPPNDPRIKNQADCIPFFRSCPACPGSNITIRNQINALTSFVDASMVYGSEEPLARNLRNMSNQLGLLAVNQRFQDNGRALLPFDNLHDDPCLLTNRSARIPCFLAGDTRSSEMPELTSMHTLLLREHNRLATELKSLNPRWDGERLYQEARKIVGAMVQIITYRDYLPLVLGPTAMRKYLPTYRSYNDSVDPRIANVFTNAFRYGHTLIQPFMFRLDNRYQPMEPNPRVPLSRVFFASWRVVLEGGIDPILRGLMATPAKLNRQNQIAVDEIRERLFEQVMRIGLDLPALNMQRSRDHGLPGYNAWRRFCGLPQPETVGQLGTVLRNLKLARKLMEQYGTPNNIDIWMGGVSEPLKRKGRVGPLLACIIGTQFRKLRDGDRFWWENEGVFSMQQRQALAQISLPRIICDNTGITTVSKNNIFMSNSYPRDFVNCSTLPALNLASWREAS
UniProt Q96GX5, sequence (whole entry, looked up): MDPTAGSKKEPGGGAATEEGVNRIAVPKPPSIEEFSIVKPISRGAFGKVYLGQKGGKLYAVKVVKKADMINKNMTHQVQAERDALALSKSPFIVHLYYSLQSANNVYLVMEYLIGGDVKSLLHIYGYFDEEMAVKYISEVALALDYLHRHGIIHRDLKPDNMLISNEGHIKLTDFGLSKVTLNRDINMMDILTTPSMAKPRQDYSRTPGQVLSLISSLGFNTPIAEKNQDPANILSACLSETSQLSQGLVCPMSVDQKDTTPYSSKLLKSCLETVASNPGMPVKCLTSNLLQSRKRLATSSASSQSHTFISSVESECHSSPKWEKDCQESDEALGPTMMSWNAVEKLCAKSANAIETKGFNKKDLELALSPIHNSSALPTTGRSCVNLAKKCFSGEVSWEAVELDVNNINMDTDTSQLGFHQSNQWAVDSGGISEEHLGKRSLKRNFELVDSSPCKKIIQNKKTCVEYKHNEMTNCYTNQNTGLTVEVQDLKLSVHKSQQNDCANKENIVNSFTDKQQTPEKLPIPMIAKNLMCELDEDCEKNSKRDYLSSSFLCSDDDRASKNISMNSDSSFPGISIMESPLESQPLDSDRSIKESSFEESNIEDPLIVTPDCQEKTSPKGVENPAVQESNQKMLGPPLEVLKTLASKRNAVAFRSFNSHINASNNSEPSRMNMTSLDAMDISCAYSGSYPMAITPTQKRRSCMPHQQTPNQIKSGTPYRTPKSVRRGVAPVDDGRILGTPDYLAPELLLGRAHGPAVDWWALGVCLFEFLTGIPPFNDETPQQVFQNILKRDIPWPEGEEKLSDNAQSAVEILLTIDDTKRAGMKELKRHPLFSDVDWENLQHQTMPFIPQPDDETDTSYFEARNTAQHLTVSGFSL
UniProt P32302, sequence (whole entry, looked up): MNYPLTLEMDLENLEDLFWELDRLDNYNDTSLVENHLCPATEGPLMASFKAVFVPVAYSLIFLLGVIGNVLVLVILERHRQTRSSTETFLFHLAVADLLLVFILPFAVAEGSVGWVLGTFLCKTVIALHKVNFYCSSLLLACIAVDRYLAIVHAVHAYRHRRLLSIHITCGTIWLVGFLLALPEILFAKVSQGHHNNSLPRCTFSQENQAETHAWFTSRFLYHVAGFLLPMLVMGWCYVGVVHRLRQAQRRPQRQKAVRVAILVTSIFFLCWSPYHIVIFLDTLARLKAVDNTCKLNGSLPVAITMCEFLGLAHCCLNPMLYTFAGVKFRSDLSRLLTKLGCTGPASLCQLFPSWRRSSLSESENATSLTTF

O=C(COP(=O)(O)O)[C@@H](O)[C@H](O)[C@H](O)COP(=O)(O)O
thermal stability ratio (Nucleolar protein 56 (Homo sapiens, UniProt O00567); thermal proteome profiling, refers to: NOP56; HepG2 cell lysate; concentration not given, 57 over 37 °C, mean; reference: compound over control): 0.555

CC[C@@H]1[C@H](F)C(=O)N[C@@H]1COc1nccc2cc(C(N)=O)c(OC)cc12
inhibition (MASTL (Homo sapiens, UniProt Q96GX5); ATP-site probe binding, inhibitor, ActivX ATP probe profiling; THP-1 cell lysate; 0.01 mM, ATP loop site): 16.1%

c1cnn2ncc(-c3ccnc(N4CCC45COC5)n3)c2c1
remaining binding (ABL1 (Homo sapiens, UniProt P00519, H396P); KINOMEscan; 1 µM; reference: control): 70%

O=C1C[C@@H](c2ccccc2)Oc2cc(O)cc(O)c21
fold change (Aryl hydrocarbon receptor (Danio rerio, UniProt Q9YGV3); reporter gene, agonist, luciferase reporter; ZF-4; 3333.33 µM; reference: vehicle control): 1.13

CCCCCCCCCCCCC/C=C/[C@@H](O)[C@H](CO)NC(=O)CCCCCCCCCCCCCCCCCCC
lipid fraction bound (Protein SET (SET, Homo sapiens, UniProt Q01105, K222D); lipid binding, GFP pull-down LC-MS/MS; A549 overexpressing GFP-tagged protein; reference: eluate plus flow-through): 11%

Cc1cc2nc3[nH]c(=O)[nH]c(=O)c3nc2cc1C
Kd (T1, riboswitch RNA yjdF aptamer (Bacillus subtilis); fluorescence titration; together with: 380 nM lumichrome): 170 nM

CC(C)OCCn1c(=S)[nH]c(=O)c2[nH]ccc21
H2O2 consumption (Myeloperoxidase (MPO, Homo sapiens, UniProt P05164); enzyme activity, inhibitor, H2O2 electrode; 0.68 µM): 21%

O=c1nc(SCc2cc(F)cc(C(F)(F)F)c2)nc(SCc2ccc3nc(Cl)ccc3c2)[nH]1
linear DNA (TOP2A (Homo sapiens, UniProt P11388); DNA cleavage; 31.25 µM, together with: etoposide 50 µM): 10.5%

CC[C@H](C)[C@H](NC(=O)[C@H](CO)NC(=O)[C@H](CCCCN)NC(=O)[C@H](Cc1ccccc1)NC(=O)[C@@H](NC(=O)[C@H](CCC(=O)O)NC(=O)[C@H](Cc1ccc(O)cc1)NC(=O)[C@@H](NC(=O)[C@H](CCCNC(=N)N)NC(=O)[C@H](CCCCN)NC(=O)[C@H](CCCNC(=N)N)NC(=O)[C@H](CCCCN)NC(=O)[C@H](CCC(=O)O)NC(=O)[C@H](CCC(=O)O)NC(=O)[C@@H](NC(=O)[C@H](CCCNC(=N)N)NC(=O)[C@H](Cc1c[nH]cn1)NC(=O)[C@H](CCCNC(=N)N)NC(=O)[C@H](CC(=O)O)NC(=O)[C@H](CC(=O)O)NC(=O)[C@@H](NC(=O)[C@H](CC(=O)O)NC(=O)[C@@H]1CCCN1C(=O)[C@@H](N)CC(C)C)[C@@H](C)O)[C@@H](C)CC)[C@@H](C)O)[C@@H](C)O)C(=O)N[C@@H](C)C(=O)N[C@@H](CCCCN)C(=O)N[C@@H](CCCCN)C(=O)N[C@@H](CO)C(=O)N1CCC[C@H]1C(=O)N[C@@H](Cc1ccccc1)C(=O)N[C@@H](CC(N)=O)C(=O)NCC(=O)N1CCC[C@H]1C(=O)O
ΔH (NF-kappa-B inhibitor alpha (Homo sapiens, UniProt P25963); binding, ITC; pH 7.5, 293 K, 50 mM NaCl): -3 ± 0.02 kcal/mol

C[C@H](CCC(C)(C)O)[C@H]1CC[C@H]2[C@@H]3CC=C4C[C@@](C)(O)CC[C@]4(C)[C@H]3CC[C@]12C
current response (Glutamate NMDA receptor; GRIN1/GRIN2B (GRIN1/GRIN2B, Homo sapiens, UniProt Q05586+Q13224, L650A); positive allosteric modulator, two-electrode voltage clamp; Xenopus oocytes expressing GluN2B-L650A; 10 µM, 0.02% cremophor, together with: 100 µM glutamate and glycine; reference: without compound): 103 ± 2.8%

COc1cc(Nc2ncc3c(n2)-c2ccc(Cl)cc2C(c2c(F)cccc2OC)=NC3)ccc1C(=O)O
remaining activity (MYLK2; kinase activity; 1 µM): 98%

CC(=O)OCc1nn(C)c2nc(N)[nH]c(=O)c2c1=O
melting temperature shift (folP (Bacteria, UniProt P0AC13); CETSA HiBiT; Escherichia coli, whole cells; concentration not given; reference: DMSO): 7.41 °C

Nc1ncnc2c1ncn2[C@@H]1O[C@H](COP(=O)(O)CP(=O)(O)OP(=O)(O)O)[C@@H](O)[C@H]1O
specific binding (P2X purinoceptor 1 (P2RX1, Homo sapiens, UniProt P51575, D97A); saturation binding; 1 nM): 212 corrected cpm and 156 corrected cpm

Cn1c2c(c3ccc(Cl)c(Cl)c31)C(C#N)C1(CCNCC1)NC2=O (racemic)
ΔTm (RPS6KA2 (Homo sapiens, UniProt Q15349); thermal shift; 10 µM, 2 µM protein; higher = stronger binding): 1.7 °C

CN1CCN(c2cc(-c3ccncc3)c(-c3ccc4ccccc4c3)nn2)CC1
activation (CXCR5 (Homo sapiens, UniProt P32302); agonist, FLIPR; 12.5 µM): -1.7%

For quick reference, copied from above:
Cc1cc2nc3[nH]c(=O)[nH]c(=O)c3nc2cc1C
Kd (T1, riboswitch RNA yjdF aptamer (Bacillus subtilis); fluorescence titration; together with: 380 nM lumichrome): 170 nM
